Assay results gathered from unrelated publications.
A part holds a random share of what one study measured.

Study 1 — technique: protein-binding microarray; molecule type: double-stranded DNA, one strand shown; sample: in vitro; concentration: 2200 nM top; notes: 60-bp whole probe; added: salmon DNA 0.4 mg/ml; reference: random background probes; reading: higher = stronger binding
Target: Interferon regulatory factor 7, full length, phosphomimetic (IRF7, Homo sapiens, UniProt Q92985, residues 1-503, S471D/S472D/S475D/S476D/S477D/S483D/S484D/S487D)
Sequence of UniProt Q92985 (whole entry, unmodified, looked up): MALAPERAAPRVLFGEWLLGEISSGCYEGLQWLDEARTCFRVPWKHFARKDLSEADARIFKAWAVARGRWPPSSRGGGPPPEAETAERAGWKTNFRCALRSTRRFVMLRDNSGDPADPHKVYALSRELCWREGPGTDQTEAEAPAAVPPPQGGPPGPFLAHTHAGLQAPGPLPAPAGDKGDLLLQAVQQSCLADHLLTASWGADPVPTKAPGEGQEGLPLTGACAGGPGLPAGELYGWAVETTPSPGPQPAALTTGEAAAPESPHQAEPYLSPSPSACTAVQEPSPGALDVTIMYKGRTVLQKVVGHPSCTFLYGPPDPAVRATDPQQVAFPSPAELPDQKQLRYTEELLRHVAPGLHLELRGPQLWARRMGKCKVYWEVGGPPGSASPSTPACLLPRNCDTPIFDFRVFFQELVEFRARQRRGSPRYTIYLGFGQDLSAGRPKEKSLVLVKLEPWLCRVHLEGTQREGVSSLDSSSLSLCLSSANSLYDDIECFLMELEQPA
`GCCTAGCACAGGCTTTTTTTTTTTTTTTTGTGCTAGGTCTTGATTCGCTTGACGCTGCTG` — result for “fitted relative affinity”: 0.266 z-score.
`GCCTAGCACTTAGGTTTCGGTTTCAGTTAGTGCTAGGTCTTGATTCGCTTGACGCTGCTG`: “fitted relative affinity” 13.1 z-score.
For `GCCTAGCACTTAGATTTCAGATTGGATTAGTGCTAGGTCTTGATTCGCTTGACGCTGCTG`, “fitted relative affinity” read 0.515 z-score.

Study 2 — technique: universal PBM; molecule type: double-stranded DNA, one strand shown; sample: in vitro; concentration: not given; reading: higher = stronger binding
Target: Sal-like protein 4, full length isoform B (SALL4, Homo sapiens, UniProt Q9UJQ4-2, residues 1-616)
Notes: 8-mer, flanks averaged, mean of replicates
Residues (chain): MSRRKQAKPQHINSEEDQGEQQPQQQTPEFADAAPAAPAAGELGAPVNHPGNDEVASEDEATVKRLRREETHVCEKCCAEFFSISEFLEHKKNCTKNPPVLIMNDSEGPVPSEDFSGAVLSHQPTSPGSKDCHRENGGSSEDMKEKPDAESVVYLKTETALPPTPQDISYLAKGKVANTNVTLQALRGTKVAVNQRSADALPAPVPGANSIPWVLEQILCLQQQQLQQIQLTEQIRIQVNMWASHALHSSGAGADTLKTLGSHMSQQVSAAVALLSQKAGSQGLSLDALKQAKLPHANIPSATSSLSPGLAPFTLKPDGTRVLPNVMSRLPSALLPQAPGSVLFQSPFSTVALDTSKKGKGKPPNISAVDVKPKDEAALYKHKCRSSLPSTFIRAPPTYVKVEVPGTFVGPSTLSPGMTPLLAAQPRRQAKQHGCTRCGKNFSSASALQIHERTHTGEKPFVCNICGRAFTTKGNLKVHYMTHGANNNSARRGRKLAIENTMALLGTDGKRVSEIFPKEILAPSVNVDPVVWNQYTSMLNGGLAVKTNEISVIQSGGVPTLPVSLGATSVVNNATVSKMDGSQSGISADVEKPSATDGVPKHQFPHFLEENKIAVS
`CAAAGCCA` gave an E-score of -0.0569.
With `ATTAAAAC` the E-score was 0.341.
The E-score of `AGGGCTCC` is reported as -0.322.
The E-score of `ACAACCAC` is reported as -0.0205.

Study 3 — technique: RNA Bind-n-Seq; molecule type: RNA; sample: in vitro; concentration: 200 nM; notes: whole 134-nt RNA, ends assumed; added: 150 mM LiCl; reference: input library; reading: higher = stronger binding; all molecules: 7-deaza-guanosine replaces G
Target: Fragile X messenger ribonucleoprotein 1, C-terminal low-complexity region (Fmr1, Mus musculus, UniProt P35922)
The log2 enrichment of `GGGAGUUCUACAGUCCGACGAUCCUCAAGUCCUGUGCUACACAUCGUAUGUACCGAAUCGGGUGGGUGGGGUGGGGAAAGUAUUAUGUUACGCCGUUCGGAUCUGCACUUCCAUGGAAUUCUCGGGUGUCAAGG` is reported as -0.452.
`GGGAGUUCUACAGUCCGACGAUCGUCCUGUGCUACACAUCGUAUGUACCGAAUCGGGAAAAAAAGGGUGGGAAAAAAAGGGAAAGUAUUAUGUUACGCCGUUCGGAUCUGCACUGGAAUUCUCGGGUGUCAAGG` gave a log2 enrichment of -0.46.
The log2 enrichment of `GGGAGUUCUACAGUCCGACGAUCUCCUGUGCUACACAUCGUAUGUACCGAAUCAAACCCCCAAACCCCCAAACCCCCCCAAAAAAGUAUUAUGUUACGCCGUUCGGAUCUGCAUGGAAUUCUCGGGUGUCAAGG` is reported as 0.833.
`GGGAGUUCUACAGUCCGACGAUCACCAUGCAGGUGGGCAUCUUUGGGAAGUGGGGCAAGGGGGGGAUAGGGAGGGGGGUAACACUUUGGGAACAGGUGGUCCGAGGUCGUUUCUGGAAUUCUCGGGUGUCAAGG` has a log2 enrichment of 1.14.

Further values, each from its own experiment
With `PhoQ, residues 284 288 289 292 302 303 TASMAF` the fold induction was 14.3 (PhoP, residues 12 14 15 18 19 FWNTL (Escherichia coli, UniProt P23836); Sort-seq, refers to: YFP reporter; E. coli; PhoQ-PhoP variant library, added: 10 µM Mg2+; reference: high Mg2+ state, higher = stronger signaling).
